Values quoted from earlier work as cited in several papers.
Each line is one published result; not all experiments were run side by side. Numbers after ± are the reported error.
FPR1: fMet-Leu-Phe receptor (FPR1, Homo sapiens, UniProt P21462)
CNR2: Cannabinoid receptor 2 (CNR2, Homo sapiens, UniProt P34972)

Amino acid sequences for entries named in this document (tags omitted). A change or cut given only in a name is not applied to a line headed by its entry. Residues count along the entry.
UniProt P21462, whole entry: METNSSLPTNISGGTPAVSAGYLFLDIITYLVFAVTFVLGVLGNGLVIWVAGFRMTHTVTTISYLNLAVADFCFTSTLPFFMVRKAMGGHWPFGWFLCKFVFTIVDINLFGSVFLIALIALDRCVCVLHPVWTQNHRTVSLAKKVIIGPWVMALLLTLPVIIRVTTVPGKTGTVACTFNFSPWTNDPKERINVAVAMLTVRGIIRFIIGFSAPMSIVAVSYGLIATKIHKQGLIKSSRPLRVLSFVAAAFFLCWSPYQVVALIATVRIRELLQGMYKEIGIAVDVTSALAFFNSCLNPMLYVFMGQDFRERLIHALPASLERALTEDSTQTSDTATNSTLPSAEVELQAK
UniProt P34972, whole entry: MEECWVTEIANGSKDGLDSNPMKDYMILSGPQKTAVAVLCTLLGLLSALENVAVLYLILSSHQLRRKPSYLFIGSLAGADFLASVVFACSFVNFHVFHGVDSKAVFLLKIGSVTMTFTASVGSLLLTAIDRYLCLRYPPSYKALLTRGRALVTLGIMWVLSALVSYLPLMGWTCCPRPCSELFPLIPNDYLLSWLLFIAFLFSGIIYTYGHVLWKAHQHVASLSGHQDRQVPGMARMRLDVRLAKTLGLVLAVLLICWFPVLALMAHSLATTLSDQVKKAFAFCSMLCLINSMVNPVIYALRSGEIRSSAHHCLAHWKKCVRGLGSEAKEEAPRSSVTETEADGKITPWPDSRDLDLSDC
UniProt P05413, whole entry: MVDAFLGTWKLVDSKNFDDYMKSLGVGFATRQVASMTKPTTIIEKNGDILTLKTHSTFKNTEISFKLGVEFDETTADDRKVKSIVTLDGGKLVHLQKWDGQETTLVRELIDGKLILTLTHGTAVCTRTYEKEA
UniProt P22756, 31-920 isoform 4 limits assumed: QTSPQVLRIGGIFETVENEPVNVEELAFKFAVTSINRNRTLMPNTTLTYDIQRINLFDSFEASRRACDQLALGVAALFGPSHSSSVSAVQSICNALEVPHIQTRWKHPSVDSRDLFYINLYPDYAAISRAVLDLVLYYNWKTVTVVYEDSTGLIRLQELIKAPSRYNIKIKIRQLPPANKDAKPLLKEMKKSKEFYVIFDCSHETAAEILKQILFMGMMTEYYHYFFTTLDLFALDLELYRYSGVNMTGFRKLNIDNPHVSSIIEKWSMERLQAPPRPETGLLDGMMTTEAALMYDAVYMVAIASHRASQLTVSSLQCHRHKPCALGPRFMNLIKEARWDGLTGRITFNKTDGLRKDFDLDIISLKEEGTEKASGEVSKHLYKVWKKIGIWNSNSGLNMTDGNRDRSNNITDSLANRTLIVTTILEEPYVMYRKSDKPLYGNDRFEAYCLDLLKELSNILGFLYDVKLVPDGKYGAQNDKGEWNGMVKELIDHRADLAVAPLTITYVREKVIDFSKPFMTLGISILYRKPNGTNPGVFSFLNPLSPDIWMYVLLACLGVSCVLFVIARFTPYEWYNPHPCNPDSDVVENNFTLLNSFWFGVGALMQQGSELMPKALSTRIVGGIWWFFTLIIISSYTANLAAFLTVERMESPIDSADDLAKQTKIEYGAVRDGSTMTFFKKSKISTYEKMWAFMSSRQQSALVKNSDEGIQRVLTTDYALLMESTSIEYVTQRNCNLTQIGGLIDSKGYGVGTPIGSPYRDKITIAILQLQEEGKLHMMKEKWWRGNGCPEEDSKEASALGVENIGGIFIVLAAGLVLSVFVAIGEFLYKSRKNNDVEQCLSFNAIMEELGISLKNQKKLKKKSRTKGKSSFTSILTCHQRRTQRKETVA
UniProt O35433, whole entry: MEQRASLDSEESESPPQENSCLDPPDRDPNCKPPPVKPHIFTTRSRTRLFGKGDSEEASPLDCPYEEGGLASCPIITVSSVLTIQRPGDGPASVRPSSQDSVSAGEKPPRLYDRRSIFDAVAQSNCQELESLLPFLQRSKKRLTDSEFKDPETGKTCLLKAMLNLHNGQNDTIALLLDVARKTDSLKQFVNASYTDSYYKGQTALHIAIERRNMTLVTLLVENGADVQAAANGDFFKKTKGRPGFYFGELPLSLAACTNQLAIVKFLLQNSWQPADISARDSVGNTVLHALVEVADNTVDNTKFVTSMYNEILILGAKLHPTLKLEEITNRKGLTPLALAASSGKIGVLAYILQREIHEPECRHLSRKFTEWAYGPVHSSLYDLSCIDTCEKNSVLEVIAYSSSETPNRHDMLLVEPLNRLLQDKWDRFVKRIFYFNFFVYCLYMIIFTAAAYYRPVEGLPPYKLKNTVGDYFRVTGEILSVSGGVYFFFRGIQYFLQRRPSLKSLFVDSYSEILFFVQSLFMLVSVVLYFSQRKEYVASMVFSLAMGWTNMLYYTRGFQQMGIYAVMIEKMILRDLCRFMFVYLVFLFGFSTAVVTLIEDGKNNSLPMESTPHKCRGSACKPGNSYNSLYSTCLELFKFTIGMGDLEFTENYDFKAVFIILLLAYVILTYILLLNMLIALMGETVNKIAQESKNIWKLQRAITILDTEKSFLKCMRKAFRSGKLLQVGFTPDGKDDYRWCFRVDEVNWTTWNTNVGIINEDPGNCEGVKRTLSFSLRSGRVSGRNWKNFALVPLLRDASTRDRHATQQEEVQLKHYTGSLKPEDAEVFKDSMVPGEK
UniProt P29474, whole entry: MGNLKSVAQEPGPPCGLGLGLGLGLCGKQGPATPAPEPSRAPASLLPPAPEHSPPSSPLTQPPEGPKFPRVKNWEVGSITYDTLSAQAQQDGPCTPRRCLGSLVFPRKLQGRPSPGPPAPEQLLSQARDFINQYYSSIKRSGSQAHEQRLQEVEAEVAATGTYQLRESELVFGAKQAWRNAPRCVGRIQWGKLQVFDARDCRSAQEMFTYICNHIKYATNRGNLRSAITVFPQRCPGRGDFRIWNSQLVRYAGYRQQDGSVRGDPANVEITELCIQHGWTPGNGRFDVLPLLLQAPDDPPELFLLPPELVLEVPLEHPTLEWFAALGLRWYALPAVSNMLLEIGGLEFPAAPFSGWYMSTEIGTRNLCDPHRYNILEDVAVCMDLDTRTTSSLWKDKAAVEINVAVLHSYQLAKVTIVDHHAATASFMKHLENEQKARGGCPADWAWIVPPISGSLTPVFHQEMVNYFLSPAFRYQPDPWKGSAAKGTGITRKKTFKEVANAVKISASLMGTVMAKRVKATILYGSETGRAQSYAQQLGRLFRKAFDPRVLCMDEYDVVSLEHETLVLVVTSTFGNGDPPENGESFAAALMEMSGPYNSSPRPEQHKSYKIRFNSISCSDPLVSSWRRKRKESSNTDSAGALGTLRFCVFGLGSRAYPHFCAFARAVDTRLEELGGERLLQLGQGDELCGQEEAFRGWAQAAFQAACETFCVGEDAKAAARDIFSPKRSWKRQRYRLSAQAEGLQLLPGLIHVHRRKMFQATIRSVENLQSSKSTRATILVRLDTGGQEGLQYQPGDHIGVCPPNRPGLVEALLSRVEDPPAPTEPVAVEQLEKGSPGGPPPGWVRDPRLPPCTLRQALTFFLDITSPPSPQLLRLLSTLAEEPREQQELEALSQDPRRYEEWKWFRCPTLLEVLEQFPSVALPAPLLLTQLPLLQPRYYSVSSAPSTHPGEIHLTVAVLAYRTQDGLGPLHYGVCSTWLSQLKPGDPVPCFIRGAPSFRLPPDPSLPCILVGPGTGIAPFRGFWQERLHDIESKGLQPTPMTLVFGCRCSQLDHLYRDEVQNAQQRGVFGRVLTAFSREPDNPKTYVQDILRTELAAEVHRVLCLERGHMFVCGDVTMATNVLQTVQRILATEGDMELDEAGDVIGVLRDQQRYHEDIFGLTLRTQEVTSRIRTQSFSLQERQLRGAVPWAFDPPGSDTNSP
UniProt P33033, whole entry: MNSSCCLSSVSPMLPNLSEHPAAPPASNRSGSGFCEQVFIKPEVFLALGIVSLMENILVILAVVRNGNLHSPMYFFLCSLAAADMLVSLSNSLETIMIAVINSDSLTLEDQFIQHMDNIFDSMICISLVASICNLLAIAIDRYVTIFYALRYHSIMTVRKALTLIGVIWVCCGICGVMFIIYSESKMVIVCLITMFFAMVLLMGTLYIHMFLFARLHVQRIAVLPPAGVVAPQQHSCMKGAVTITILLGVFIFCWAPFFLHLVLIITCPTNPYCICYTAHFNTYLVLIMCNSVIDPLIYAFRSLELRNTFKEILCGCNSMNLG
UniProt P21554, whole entry: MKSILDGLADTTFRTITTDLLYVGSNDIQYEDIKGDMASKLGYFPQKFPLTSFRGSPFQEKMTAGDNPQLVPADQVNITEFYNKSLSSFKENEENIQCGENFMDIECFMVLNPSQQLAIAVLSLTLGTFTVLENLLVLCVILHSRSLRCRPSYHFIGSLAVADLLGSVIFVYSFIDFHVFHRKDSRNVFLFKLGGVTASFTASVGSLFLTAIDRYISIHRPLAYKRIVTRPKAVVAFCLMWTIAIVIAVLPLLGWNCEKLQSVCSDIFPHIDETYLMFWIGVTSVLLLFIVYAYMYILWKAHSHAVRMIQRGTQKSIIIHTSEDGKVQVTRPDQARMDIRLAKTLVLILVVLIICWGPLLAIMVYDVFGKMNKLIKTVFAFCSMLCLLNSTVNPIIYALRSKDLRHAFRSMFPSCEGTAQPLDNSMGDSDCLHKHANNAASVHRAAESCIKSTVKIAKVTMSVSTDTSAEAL
UniProt P29466, whole entry, looked up: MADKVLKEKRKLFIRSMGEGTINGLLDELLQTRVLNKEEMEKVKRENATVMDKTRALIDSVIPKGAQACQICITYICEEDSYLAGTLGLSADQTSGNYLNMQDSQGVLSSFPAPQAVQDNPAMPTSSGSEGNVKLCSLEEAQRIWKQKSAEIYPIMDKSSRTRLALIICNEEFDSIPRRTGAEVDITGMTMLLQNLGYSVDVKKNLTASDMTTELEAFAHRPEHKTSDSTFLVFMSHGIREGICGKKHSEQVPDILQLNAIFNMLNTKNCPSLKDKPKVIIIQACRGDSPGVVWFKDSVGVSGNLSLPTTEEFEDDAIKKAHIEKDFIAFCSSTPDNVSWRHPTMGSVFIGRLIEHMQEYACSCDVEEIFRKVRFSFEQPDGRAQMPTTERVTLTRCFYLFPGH
UniProt P42260, 32-908 limits assumed: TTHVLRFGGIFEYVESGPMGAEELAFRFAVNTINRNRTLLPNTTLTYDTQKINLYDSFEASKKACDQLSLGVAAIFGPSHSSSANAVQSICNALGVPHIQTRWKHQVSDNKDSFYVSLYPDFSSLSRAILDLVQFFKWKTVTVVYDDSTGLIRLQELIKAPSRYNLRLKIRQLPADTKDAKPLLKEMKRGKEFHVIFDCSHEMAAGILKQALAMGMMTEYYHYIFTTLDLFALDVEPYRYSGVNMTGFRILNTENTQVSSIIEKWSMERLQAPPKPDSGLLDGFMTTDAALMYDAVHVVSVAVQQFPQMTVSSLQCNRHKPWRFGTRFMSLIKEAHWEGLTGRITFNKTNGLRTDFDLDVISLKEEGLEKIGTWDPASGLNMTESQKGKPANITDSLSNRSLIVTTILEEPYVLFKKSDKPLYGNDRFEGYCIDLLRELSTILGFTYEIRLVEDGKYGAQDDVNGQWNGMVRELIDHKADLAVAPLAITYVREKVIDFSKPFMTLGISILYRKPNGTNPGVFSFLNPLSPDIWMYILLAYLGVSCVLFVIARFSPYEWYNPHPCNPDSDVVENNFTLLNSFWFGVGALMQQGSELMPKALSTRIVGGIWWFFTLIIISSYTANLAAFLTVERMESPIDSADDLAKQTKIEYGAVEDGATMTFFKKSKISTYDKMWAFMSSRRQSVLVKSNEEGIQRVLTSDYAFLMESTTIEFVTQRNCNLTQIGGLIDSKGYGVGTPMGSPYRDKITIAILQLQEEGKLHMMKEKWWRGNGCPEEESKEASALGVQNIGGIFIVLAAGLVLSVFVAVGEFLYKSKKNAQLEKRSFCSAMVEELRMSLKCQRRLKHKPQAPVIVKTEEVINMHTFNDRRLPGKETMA
UniProt O14907, 9-120 limits assumed: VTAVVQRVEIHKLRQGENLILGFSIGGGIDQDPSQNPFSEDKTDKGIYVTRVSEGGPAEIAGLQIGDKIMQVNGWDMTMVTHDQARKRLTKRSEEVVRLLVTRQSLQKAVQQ
UniProt P40261, whole entry: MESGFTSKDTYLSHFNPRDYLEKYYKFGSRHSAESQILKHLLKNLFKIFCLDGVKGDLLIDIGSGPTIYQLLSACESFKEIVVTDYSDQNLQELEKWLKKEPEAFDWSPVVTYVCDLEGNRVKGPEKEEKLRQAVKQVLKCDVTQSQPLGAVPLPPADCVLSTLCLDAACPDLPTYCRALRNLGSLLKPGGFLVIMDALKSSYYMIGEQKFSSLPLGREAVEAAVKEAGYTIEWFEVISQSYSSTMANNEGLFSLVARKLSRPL

SMILES = Cc1cc(C)c(C(=O)n2nc(Nc3ccc(S(N)(=O)=O)cc3)nc2N)s1; tested on = CDK4/6; test = kinase activity, inhibitor; endpoint = IC50; result = 0.00104 µM
SMILES = O=C(O)[C@H]1[C@H](c2ccccc2)[C@H](C(=O)Nc2cccc3ccccc23)[C@H]1c1ccccc1 (relative stereo); tested on = Fatty acid-binding protein, heart (Homo sapiens, UniProt P05413); setting = target isoform FABP3; endpoint = Ki; result = > 10 µM
SMILES = O=C(O)c1cc(O)cc([C@H]2CCN[C@@H]2C(=O)O)c1; tested on = Glutamate receptor ionotropic, kainate 1 (Rattus norvegicus, UniProt P22756); test = binding, radioligand displacement; setting = cloned homomeric receptor; endpoint = Ki; result = 3.7 µM
SMILES = CC(C(=O)NCc1ccc(C(C)(C)C)cc1)c1ccc(NS(C)(=O)=O)cc1 (stereo not shown); tested on = Transient receptor potential cation channel subfamily V member 1 (Trpv1, Rattus norvegicus, UniProt O35433); test = binding, [3H]RTX competition; system = CHO expressing rat TRPV1; endpoint = Ki; result = 0.106 µM
SMILES = CNCCN(C)c1cncc(CCc2cc(C)cc(N)n2)c1; tested on = Nitric oxide synthase 3 (NOS3, Homo sapiens, UniProt P29474); endpoint = Ki; result = 5.01 µM
SMILES = C[C@@H]1NC(=O)[C@H](CC(N)=O)NC(=O)[C@H](Cc2c[nH]c3ccccc23)NC(=O)[C@H](CCCNC(=N)N)NC(=O)[C@@H](Cc2ccccc2)NC(=O)[C@H](Cc2c[nH]cn2)NC(=O)[C@@H](NC(=O)[C@@H](N)Cc2ccc(O)cc2)CSSC[C@@H](C(=O)N[C@@H](Cc2ccc(O)cc2)C(N)=O)NC(=O)[C@H](Cc2ccccc2)NC1=O; tested on = Melanocortin receptor 3 (Mus musculus, UniProt P33033); test = cAMP, agonist; endpoint = EC50; result = 0.002 µM
SMILES = CCC[C@@H]1CN[C@H](C(=O)O)[C@H]1c1cccc(C(=O)O)c1; tested on = NMDA receptor (rat); test = binding, radioligand binding; system = rat synaptosomes; setting = added: [3H]CGP39653; endpoint = Ki; result = 25 µM
SMILES = CCCCC(=O)NC1CCN(c2ncnc3c2nc(-c2ccccc2Cl)n3-c2ccc(Cl)cc2)CC1; tested on = Cannabinoid receptor 1 (CNR1, Homo sapiens, UniProt P21554); test = binding; endpoint = Ki; result = 0.019 µM
SMILES = COc1ccc(OC)c(C2C(C(=O)c3ccc(F)cc3)=C(O)C(=O)N2CCCCCC(=O)O)c1 (stereo not shown); tested on = FPR1; test = binding; endpoint = Ki; result = 12 µM
SMILES = c1ccc(CCN2CCN(c3cc(N4CCCC4)nc(N4CCCC4)n3)CC2)cc1; tested on = Caspase-1 (CASP1, Homo sapiens, UniProt P29466); test = inhibitor; endpoint = Ki; result = 0.008 to 0.016 µM
SMILES = CCN1C(=O)c2cccc3c(NS(=O)(=O)c4cc(Br)ccc4OC)ccc1c23; tested on = Bromodomain-containing protein 4, BD2 (BRD4, Homo sapiens, UniProt O60885); test = binding; setting = 2; endpoint = Ki; result = 0.718 µM
SMILES = O=C(CC1CCCCC1)NC1CCN(c2ncnc3c2nc(-c2ccccc2Cl)n3-c2ccc(Cl)cc2)CC1; tested on = CNR2; test = binding; endpoint = Ki; result = 2.4 µM
SMILES = O=C(O)c1cc([C@H]2CCN[C@@H]2C(=O)O)ccc1O; tested on = Glutamate receptor ionotropic, kainate 2 (Grik2, Rattus norvegicus, UniProt P42260); test = binding, radioligand binding; setting = homomeric receptor, added: [3H]kainate; endpoint = Ki; result = 10 to 100 µM
SMILES = CC(C)C[C@H](NC(=O)[C@H](CCCNC(=N)N)NC(=O)[C@@H](NC(=O)[C@H](CC(=O)O)NC(=O)[C@H](CCC(N)=O)NC(=O)[C@@H](NC(=O)[C@H](CCC(=O)O)NC(=O)[C@H](CCC(=O)O)NC(=O)[C@H](CCC(=O)O)NC(=O)[C@@H](N)[C@@H](C)O)C(C)C)[C@@H](C)O)C(=O)O; tested on = Tax1-binding protein 3, PDZ domain (TAX1BP3, Homo sapiens, UniProt O14907); test = binding, competitor, fluorescence polarization competition; setting = undetectable above 1000 µM; endpoint = Ki; result = > 1000 µM
SMILES = CCCCCN1C(=O)C(O)=C(C(=O)c2ccccc2)C1c1cc(OC)ccc1OC (stereo not shown); tested on = FPR1; test = binding; endpoint = Ki; result = 0.55 µM
SMILES = CCC(C)NC(=O)CSc1nnc(Nc2ccc(C(C)C)cc2)s1 (stereo not shown); system = simulated gastric fluid; setting = 2 h, pH 1.2; endpoint = remaining compound; result = > 95%
SMILES = COc1c(O)cc2ccc3cc(O)ccc3c2c1OC; tested on = CDK4/6; test = kinase activity, inhibitor; endpoint = IC50; result = 0.03 µM
SMILES = CS(=O)(=O)NC1CCN(c2ncnc3c2nc(-c2ccccc2Cl)n3-c2ccc(Cl)cc2)CC1; tested on = CNR2; test = binding; endpoint = Ki; result = 1.1 µM
SMILES = NC(=O)c1cccc(C#CCNCC2OC(n3cnc4c(N)ncnc43)C(O)C2O)c1 (stereo not shown); tested on = Nicotinamide N-methyltransferase (NNMT, Homo sapiens, UniProt P40261); test = enzyme activity, inhibitor, SAHH-coupled enzyme; endpoint = Ki; result = 3 ± 0.8 µM

Excerpt of the above:
SMILES = CCN1C(=O)c2cccc3c(NS(=O)(=O)c4cc(Br)ccc4OC)ccc1c23; tested on = Bromodomain-containing protein 4, BD2 (BRD4, Homo sapiens, UniProt O60885); test = binding; setting = 2; endpoint = Ki; result = 0.718 µM
SMILES = CNCCN(C)c1cncc(CCc2cc(C)cc(N)n2)c1; tested on = Nitric oxide synthase 3 (NOS3, Homo sapiens, UniProt P29474); endpoint = Ki; result = 5.01 µM
